Literature values that unrelated publications cite.
Each line is one published result; not all experiments were run side by side. Numbers after ± are the reported error.
Cell line: A549

For `c1ccc(Cn2cc(COc3ccc(-c4nc5ccc(C6=NCCN6)cc5[nH]4)cc3)nn2)cc1`, “late apoptotic cells increase” read 16.4% (concentration not given).
With `C=CC(=O)N(c1cccc2ccccc12)S(=O)(=O)c1ccc(OC)cc1` the IC50 was 1.35 µM (cell growth).
With `CCNc1cc2c(cc1C)C1(c3cc(C)c(NCC)cc3O2)c2ccccc2C(=O)N1N=Cc1ccnc(-c2cc(C)ccn2)c1.Cc1c(C)c(-c2ccc(-c3ccccc3)cc2)[c-](C)c1C.F[P-](F)(F)(F)(F)F.[Cl-].[Ir+3]` the Pearson coefficient was 0.53 (item: lysosome colocalisation; concentration not given).
`CCC1=C(O)c2c(oc(-c3ccc(OC)c4ccccc34)cc2=O)C(CC)(CC)C1=O` gave an IC50 of 1.48 µM (cell growth, SRB).
`CCN1C(=O)C2CCC(O[Si](c3ccccc3)(c3ccccc3)C(C)(C)C)CC2C1=O` (stereo not shown) gave an IC50 of 19 µM.
For `CSCc1ccccn1.[Cl-].[Cl-].[Ru+2].c1ccc(-c2ccnc3c2ccc2c(-c4ccccc4)ccnc23)cc1.c1ccc(-c2ccnc3c2ccc2c(-c4ccccc4)ccnc23)cc1`, the EC50 was 3.4 µM (cell growth; dark 2D monolayer).
The IC50 of `N#Cc1ccc(-c2csc(N3N=C(c4ccc(N5CCOCC5)cc4)CC3c3ccc(Cl)cc3)n2)cc1` (stereo not shown) is reported as 10.8 µM (cell growth, MTT).
With `CC1=C(CO)C(=O)O[C@@H]([C@@H](C)[C@H]2CC[C@H]3[C@@H]4C[C@H]5O[C@]56[C@@H](O)C=CC(=O)[C@]6(C)[C@H]4CC[C@]23C)C1` the IC50 was 0.04 µM (cell growth).
`CSCc1ccccn1.[Cl-].[Cl-].[Ru+2].c1ccc(-c2ccccn2)nc1.c1ccc(-c2ccccn2)nc1` has an EC50 of > 150 µM (cell growth; dark 2D monolayer).
`Nc1nc2cc(CC[C@H]3C[C@@H](n4ccc5c(N)ncnc54)[C@H](O)[C@@H]3O)ccc2cc1Br` has an IC50 of 0.0002 µM (nuclear arginine dimethylation, inhibitor, immunohistochemistry).
With `COc1cc(-n2cc(-c3cc(-c4nc(-c5cc([N+](=O)[O-])cc([N+](=O)[O-])c5)no4)[nH]n3)nn2)cc(OC)c1OC` the IC50 was 0.45 ± 0.023 µM.
With `CCC1=C(O)c2c(oc(-c3ccc4ccccc4c3)cc2=O)C(CC)(CC)C1=O` the IC50 was 1.16 µM (cell growth, SRB).
`CC1(C)CC(=O)C2=C(C1)OC(N)=C(C#N)C2c1ccc(-n2ccnc2)cc1` (stereo not shown) gave an IC50 of 0.23 ± 0.12 µM (cell growth).
`[Cl-].[Cl-].[Ru+2].c1ccc(-c2ccccn2)nc1.c1ccc(-c2ccccn2)nc1.c1cnc2c(c1)ccc1cccnc12` gave an IC50 of > 100 µM (light irradiation).
With `O=C(CSc1nnc(Cn2cc(-c3ccccc3)nn2)o1)Nc1nc(-c2ccc(Br)cc2)cs1` the IC50 was 0.4 µM (cell proliferation).
Under “early apoptotic cells”, `CCOC(=O)C1=C(CSC(=S)N(C2CCCCC2)C2CCCCC2)N(C)C(=O)NC1c1ccccc1` (stereo not shown) is recorded as 3.27% (concentration not given; relative to: untreated).
